Measured values pooled from the literature.
Compare with care: the assays were run in different laboratories. “And” joins repeats or separate records; there may be more than shown. Numbers after ± are the reported error.

Cc1ccc([C@@H]2O[C@H](CO)[C@@H](O)[C@H](O)[C@H]2O)cc1Cc1ccc(-c2ccc(F)cc2)s1 — urinary magnesium excretion change (Japanese type 2 diabetes patients; 25 mg, day 2, 24 h urine collection; relative to: baseline): 9.74 mg
O=C(O)CN1CCCN2CCN(CC(=O)O)CCCN(CC1)Cc1cccc(n1)C2 — intact complex (64Cu complex; 24 h, 70 °C, with: DOTA excess): 95%
O=C(O)CCC(=O)O.[2H]C([2H])([2H])Oc1cc(C)c2[nH]ccc2c1CN1CC[C@@H](C2CC2)C[C@H]1c1ccc(C(=O)O)cc1 — TEAE hyponatremia (healthy Chinese subjects; 200 mg, single ascending dose): 0%
NC(=O)c1ccc(C(=O)Nc2cc(C3CC3)[nH]n2)cc1 — logD (octanol/buffer; 67 µM, pH 7.4): 1.33
NC[C@@]1(CC(=O)O)[C@@H]2CC[C@H]3C[C@@H]2[C@@H]1C3 — unbound Cmax (human, severe renal impairment, plasma; geometric mean): 394 ng/mL
COc1nc(-c2cc(C)c(N[C@@H](C)c3c(F)cc(F)cc3F)nn2)ccc1-n1cnc(C)c1 — brain concentration (C57BL/6J mice, male, brain; oral, 50 mg/kg daily for 9 days, 4 h after last dose): 13200 ng/g
CNC(=O)c1ccc(-c2cnc3ncc(Cc4ccc5ncccc5c4)n3n2)cc1F — adverse event incidence (phase 1 clinical trial, item: blood bilirubin increased; dose escalation cohort; oral, dose not given, grade 3 or 4): 11%
[O]=[Co].[O]=[Co][O][Co]=[O] — cobalt concentration (rat, female, urine, 24-h collection; oral gavage, single, 300 mg/kg (220 mg Co/kg), day 2, vehicle 0.5% HPMC): 572 µg/L
CCCn1cc(C)c2c(=O)[nH]c(-c3cc(S(=O)(=O)N4CCN(CC)CC4)ccc3OCC)nc21 — flushing incidence (human): 38.9%
O=C(COc1ccc(Cl)cc1)NC12CC(c3nnc([C@H]4C[C@@H](OC(F)(F)F)C4)o3)(C1)C2 — adverse event incidence (item: Hypogeusia; human; 200 mg once daily, 28 (unit not given)): 11.1%
C[C@H]1Oc2cc(cnc2N)-c2c(nn(C)c2C#N)CN(C)C(=O)c2ccc(F)cc21 — CL (population PK; patients with normal hepatic function, plasma; oral, 100 mg, single dose, NCI classification): 149 mL/min
Cc1cc2sc(N)nc2c2cccnc12 — AUMC(0-t) (female BALB/c mice, plasma; i.p., 30 mg/kg): 219000 h²·ng/mL
c1ccc2c(c1)ccc1ccccc12 — log K(PDMS-water) (fresh water; 12 (unit not given), 20 °C, S30-2 sampler, 30 µm): 3.8 ± 0.01
CC(C)c1c(C(=O)Nc2ccc(O)cc2)c(-c2ccccc2)c(-c2ccc(F)cc2)n1CC[C@@H](O)C[C@@H](O)CC(=O)O — chromatographic hydrophobicity index (reverse phase LC, C18; acetonitrile gradient, 0.1% formic acid; converted from retention time; relative to: Valko CHI standards): 78.2
CCCCC1=NC2(CCCC2)C(=O)N1Cc1ccc(-c2ccccc2S(=O)(=O)Nc2noc(C)c2C)c(COCC)c1 — Tmax (healthy adult volunteers, plasma; oral, 800 mg, 14 days repeated dosing, fasted, crushed tablet): 3.25 h
COc1ncc(-c2nc3c(n2C(C)C)[C@H](c2ccc(Cl)cc2)N(c2cc(Cl)cn(C)c2=O)C3=O)c(OC)n1 — Cmax (LC-MS/MS; human, plasma; oral, 7.5 mg, cycle 1 day 14, low-dose arm): 52.2 ng/mL
CC(=O)N(C)C1CCN(c2cc(F)cc(NC(=O)c3cc4c(F)ccc(C)c4[nH]3)c2)C1 (centres unmarked) — plasma concentration (CD1 mouse, plasma; intravenous, 1 mg/kg, 0.05 h): 1260 ng/mL
CCCCOC(=O)N1CCN(C(=O)[C@H](CP(=O)(O)O)NC(=O)c2cc(N3CC[C@H](OC)C3)nc(-c3ccccc3)n2)CC1 — change in PR interval (human; subcutaneous, 16 mg, 24 h post-dose; relative to: baseline): -3.4 ± 11.9 ms
Fc1ccc(-c2nc(-c3c(Cl)cccc3Cl)[nH]c2-c2ccncc2)cc1 — membrane retention (PAMPA; 16 h): > 90%
CCOC(=O)N1C[C@@H](c2ccccc2O)N[C@@H](c2ccc(C(F)(F)F)cc2)C1 — logD (shake-flask, 1-octanol/buffer; pH 7.4): > 4.7
CC[C@H](C)[C@H](NC(=O)[C@H](Cc1ccccc1)NC(=O)[C@H](CCC(=O)O)NC(=O)[C@H](CCCCNC(=O)COCCOCCNC(=O)COCCOCCNC(=O)CC[C@H](NC(=O)CCCCCCCCCCCCCCCCC(=O)O)C(=O)O)NC(=O)[C@H](C)NC(=O)[C@H](C)NC(=O)[C@H](CCC(N)=O)NC(=O)CNC(=O)[C@H](CCC(=O)O)NC(=O)[C@H](CC(C)C)NC(=O)[C@H](Cc1ccc(O)cc1)NC(=O)[C@H](CO)NC(=O)[C@H](CO)NC(=O)[C@@H](NC(=O)[C@H](CC(=O)O)NC(=O)[C@H](CO)NC(=O)[C@@H](NC(=O)[C@H](Cc1ccccc1)NC(=O)[C@@H](NC(=O)CNC(=O)[C@H](CCC(=O)O)NC(=O)C(C)(C)NC(=O)[C@@H](N)Cc1cnc[nH]1)[C@@H](C)O)[C@@H](C)O)C(C)C)C(=O)N[C@@H](C)C(=O)N[C@@H](Cc1c[nH]c2ccccc12)C(=O)N[C@@H](CC(C)C)C(=O)N[C@H](C(=O)N[C@@H](CCCNC(=N)N)C(=O)NCC(=O)N[C@@H](CCCNC(=N)N)C(=O)NCC(=O)O)C(C)C — QTcF change from baseline (12-lead Holter ECG; healthy humans; subcutaneous, 1.5 mg once weekly, 18 h, steady state; relative to: placebo): -1.6 ms
CCc1nc(C(N)=O)c(Nc2ccc(N3CCC(N4CCN(C)CC4)CC3)c(OC)c2)nc1NC1CCOCC1 — freeze-thaw stability accuracy (mouse plasma; 15 ng/mL, three freeze-thaw cycles): 91.6%
Cc1cc(NC2CCN(C(=O)OC3CCN(C(=O)/C=C/CN(C)C)C3)CC2)n2ncc(C(C)C)c2n1 (centres unmarked) — patients with Anemia (patients with advanced solid tumours; dose not given, QD arm, grade 3 or higher): 9%
C[C@@H]1COCCN1c1cc(C2([S@](C)(=N)=O)CC2)nc(-c2cc[nH]c3nccc2-3)n1 — Nasopharyngitis incidence (Japanese advanced solid tumour patients; oral, 160 mg twice daily, any grade): 16.7%
CCc1cc(C(=O)NC)c2nccc(N3CCc4c(cc(Cn5ccnc5)cc4-c4cn(C)nc4C(F)(F)F)C3=O)c2c1 — reticulocytes (Sprague Dawley rats; oral, 100 mg/kg once daily, 7 days; relative to: red blood cells): 4.92 ± 0.36%
CN(CCC#N)C1CCN(C(=O)Cn2cc(NC(=O)c3cnn4cccnc34)c(-c3cc(Cl)ccc3OC(F)F)n2)CC1 — LDL cholesterol change (healthy human; 1 mg once daily, day 42; relative to: baseline): -5.8 mg/dL
N#Cc1ccc2c(c1)[C@H]1CCCN(C(=O)c3ccc4[nH]cnc4c3)[C@H]1C2 — DHEA-S level (human, female; 40 mg, day 15): 7.2 µmol/L
C[C@H](N[C@@H](CCc1ccccc1)C(=O)O)C(=O)N1[C@H](C(=O)O)C[C@H]2CCCC[C@@H]21 — freeze-thaw stability (human plasma; 300 pg/mL, 3 cycles at -20 °C; relative to: nominal): 97.6 ± 7.6%
Cc1cc([C@H]2C[C@H]3[C@@H](CF)SC(N)=N[C@@]3(c3ccc(F)cc3F)CO2)on1 — brain concentration (male 129/SVE wild-type mouse, brain; subcutaneous, 100 mg/kg, 5 h): 0.399 µM
COc1ccc2c3c([nH]c2c1)[C@H](CC(C)C)N1C(=O)[C@H](CC(=O)NC(C)C)NC(=O)[C@@H]1C3 — kidney to body weight ratio (wild-type mouse; oral, 100 mg/kg daily, 23 days): 1.26% and 1.2%
O=C(Nc1nc2cccc(-c3ccc(CN4CCS(=O)(=O)CC4)cc3)n2n1)C1CC1 — treatment-emergent adverse events (item: asthenia; human rheumatoid arthritis patients; oral, 30 mg once daily, 4 weeks, regardless of relatedness): 0%
CCOC(=O)N1C[C@@H](c2ccc(N3CCCC3)cc2)N[C@@H](c2ccc(-c3ccccc3)cc2)C1 — logD (shake-flask, 1-octanol/buffer; pH 7.4): > 4.7
Cc1cc(-c2nccc3c2ccn3CC(=O)Nc2ccc(-c3cnccn3)cn2)ccn1 — skin disorder TEAEs (healthy human volunteers; oral, 5 mg once daily, 14 days, multiple ascending dose): 0%
CCn1c(=O)c(-c2cc(NC(=O)Nc3ccccc3)c(F)cc2Br)cc2cnc(NC)cc21 — freeze-thaw stability accuracy (human plasma; 4000 ng/mL, -20 °C, 3 cycles, high QC): 7.2%
NCCOCC(=O)N1CCC[C@H](C(=O)NCc2nc(-c3ccc(C(F)(F)F)cc3)cs2)C1 — biliary excretion, unchanged (rat, bile duct-cannulated, anaesthetised, bile; intravenous, dose not given, 6 h; relative to: dose): 17%
CCn1cc(C(=O)N2CCOCC2)c(=O)c2cc(NC3Cc4ccccc4C3)cnc21 — Tmax (humans, fasted, plasma; oral, 300 mg, single dose, suspension): 1.5 h
COc1ccc2c(C)nc(Nc3nc(C)cc(O)n3)nc2c1 — logD (octanol/buffer; pH 7.4): 2.51
c1cc(-c2ccc3ncnc(Nc4ncco4)c3c2)nc(N2C[C@H]3C[C@@H]2CO3)n1 — CLint (human liver microsomes): 53 µL/min/mg
Oc1ccc(/C=C/c2cc(O)cc(O)c2)cc1 — total cholesterol (rat, azoxymethane-injected, blood at sacrifice; 100 mg/kg): 77 mg/dL and 69 mg/dL and 68 mg/dL
CCN1/C(=C/C(C)=O)Sc2ccc(F)cc21 — heart rate change (cynomolgus monkey; oral, 30 mg/kg, 1 h post-dose; relative to: pre-dose): 100 ± 16.1%
O=[N+]([O-])c1cc2c3ccccc3ccc2c2ccccc12 — tumours per rat (item: others mammary tumours; female Sprague-Dawley rats; intramammary, 12.3 µmol per rat, up to 32 weeks): 0.13 ± 0.29
CC(C)(C(=O)N1CCOc2c(C#N)cncc2C1)C(F)F — subjects with TEAE (item: haematochezia; human, both sexes; oral, 20 mg twice daily, 14 days, multiple ascending dose): 0%
Clc1cc(Cl)cc([C@H]2COC[C@@H](C3CCCCC3)N2)c1 — logD (shake-flask, 1-octanol/buffer; pH 7.4): > 4.7
O=C(Nc1ccc(OC(F)(F)Cl)cc1)c1cnc(N2CC[C@@H](O)C2)c(-c2ccn[nH]2)c1 — grade ≥3 event rate (per treatment cycle, item: amylase increase; human patients; oral, dose not given, 28 day cycle, dose-finding study): 0.6%
Nc1nc2c(nc([N+](=O)[O-])n2[C@@H]2O[C@H](CO)[C@@H](O)[C@H]2O)c(=O)[nH]1 — nucleoside remaining fraction (depurination, RP-HPLC; citrate-phosphate buffer 0.5 mM; 177 min, pH 2, 37 °C): 0.716
CCn1c(=O)c(-c2cc(NC(=O)Nc3ccccc3)c(F)cc2Br)cc2cnc(NC)cc21 — participants with drug-related TEAE (item: nervous system disorders; human, mild hepatic impairment; oral, 50 mg single dose): 0%
C=CC(=O)NC1CCN(c2ncc3ncnc(Nc4ccc(Oc5ccc6c(c5)ncn6C)c(C)c4)c3n2)CC1 — subjects with drug-related adverse events (healthy male volunteers; intravenous then oral, dose not given, 1 week, oral 2 h after infusion): 14%
CNC(=O)c1ccc(-c2cnc3ncc(Cc4ccc5ncccc5c4)n3n2)cc1F — Photosensitivity patients (Japanese patients; oral, 400 mg twice daily, grade 3/4): 0%
COc1ccccc1NC(=O)CSc1nnc(-c2ccc(F)cc2)n1C — logD (octanol/buffer; pH 7.4): 2.48
O=C(N[C@H](Cc1c[nH]c2ccccc12)C(=O)Nc1ccncc1)c1ccc(-c2ccc(F)c(Cl)c2)cc1F — concentration (Swiss Webster mouse, female, fat; oral, 50 mg/kg, 2 h, 20% Kolliphor vehicle): 5.9 µM
CN(C)C/C=C/C(=O)Nc1cc2c(Nc3ccc(F)c(Cl)c3)ncnc2cc1O[C@H]1CCOC1 — GSH adduct formation (PBS; 100 µM, 23 h, pH 7.45, 37 °C, with: GSH 5 mM): 94%
Cc1nc2ccc(OCc3ccc(C(F)(F)F)cc3)cc2[nH]1 — tissue concentration (Balb/c mouse, male, lungs; intravenous, 1 mg/kg, 3 h): 361 ± 77.2 ng/g
NC[C@H](NC(=O)c1ccc(C#CC#Cc2ccccc2)cc1)C(=O)NO — logD (octanol/buffer; pH 7.4): > 4.5
C[C@@H](c1ncncc1F)[C@](O)(Cn1cncn1)c1ccc(F)cc1F — grade 1 TEAE (human; oral, 400 mg, drug interaction trial): 36.4%
CCC[C@H](C)[C@H]1CN(C(=O)OCC)C[C@@H](c2ccc(C(F)(F)F)cc2)N1 — logD (shake-flask, 1-octanol/buffer; pH 7.4): > 4.7
COc1cc2c(cc1OC)CN(CCc1ccc(NC(=O)c3cccc4c(=O)c5cccc(OC)c5[nH]c34)cc1)CC2 — free plasma concentration (Sprague Dawley rats, plasma; iv infusion, 8.9 mg/h/kg, 4 h): 49 ng/mL

Repeated from above:
CCc1cc(C(=O)NC)c2nccc(N3CCc4c(cc(Cn5ccnc5)cc4-c4cn(C)nc4C(F)(F)F)C3=O)c2c1 — reticulocytes (Sprague Dawley rats; oral, 100 mg/kg once daily, 7 days; relative to: red blood cells): 4.92 ± 0.36%
CN(CCC#N)C1CCN(C(=O)Cn2cc(NC(=O)c3cnn4cccnc34)c(-c3cc(Cl)ccc3OC(F)F)n2)CC1 — LDL cholesterol change (healthy human; 1 mg once daily, day 42; relative to: baseline): -5.8 mg/dL
N#Cc1ccc2c(c1)[C@H]1CCCN(C(=O)c3ccc4[nH]cnc4c3)[C@H]1C2 — DHEA-S level (human, female; 40 mg, day 15): 7.2 µmol/L
C[C@H](N[C@@H](CCc1ccccc1)C(=O)O)C(=O)N1[C@H](C(=O)O)C[C@H]2CCCC[C@@H]21 — freeze-thaw stability (human plasma; 300 pg/mL, 3 cycles at -20 °C; relative to: nominal): 97.6 ± 7.6%
